Experimental data gathered from unrelated publications.
Every numbered part comes from another study and shows a few of its results, in no order. Several values in a cell are separate wells, animals, samples, runs or records.
UniProt P00519, sequence (whole entry, unmodified, looked up): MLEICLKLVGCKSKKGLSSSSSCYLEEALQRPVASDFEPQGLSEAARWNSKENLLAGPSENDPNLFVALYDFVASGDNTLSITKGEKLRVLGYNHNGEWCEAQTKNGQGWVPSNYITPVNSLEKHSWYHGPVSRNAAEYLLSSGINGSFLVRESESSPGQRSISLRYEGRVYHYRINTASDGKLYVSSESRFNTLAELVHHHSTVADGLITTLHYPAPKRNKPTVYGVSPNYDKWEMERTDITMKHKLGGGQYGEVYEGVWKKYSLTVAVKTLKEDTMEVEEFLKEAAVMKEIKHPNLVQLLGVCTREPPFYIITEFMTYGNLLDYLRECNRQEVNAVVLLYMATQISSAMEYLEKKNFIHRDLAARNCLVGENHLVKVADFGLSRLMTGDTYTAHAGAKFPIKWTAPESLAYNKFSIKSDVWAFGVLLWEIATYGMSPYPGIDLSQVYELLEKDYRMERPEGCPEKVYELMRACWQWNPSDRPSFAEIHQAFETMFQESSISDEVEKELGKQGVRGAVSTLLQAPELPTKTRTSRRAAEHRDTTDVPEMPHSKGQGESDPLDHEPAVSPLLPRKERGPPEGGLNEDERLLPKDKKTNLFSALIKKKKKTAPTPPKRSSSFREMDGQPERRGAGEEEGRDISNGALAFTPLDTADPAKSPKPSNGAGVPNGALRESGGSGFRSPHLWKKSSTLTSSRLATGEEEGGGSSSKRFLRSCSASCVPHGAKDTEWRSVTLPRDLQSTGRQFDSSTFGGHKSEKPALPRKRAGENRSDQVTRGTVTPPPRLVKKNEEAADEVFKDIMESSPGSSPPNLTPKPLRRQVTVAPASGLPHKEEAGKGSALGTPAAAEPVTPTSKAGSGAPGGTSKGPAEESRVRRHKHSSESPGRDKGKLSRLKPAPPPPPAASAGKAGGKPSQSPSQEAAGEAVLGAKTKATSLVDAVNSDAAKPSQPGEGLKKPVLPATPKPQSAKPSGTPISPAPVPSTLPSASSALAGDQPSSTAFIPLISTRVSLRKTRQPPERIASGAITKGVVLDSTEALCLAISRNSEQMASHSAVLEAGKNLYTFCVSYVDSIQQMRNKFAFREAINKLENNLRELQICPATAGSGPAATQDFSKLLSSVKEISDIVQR
UniProt P07949, sequence (whole entry, unmodified, looked up): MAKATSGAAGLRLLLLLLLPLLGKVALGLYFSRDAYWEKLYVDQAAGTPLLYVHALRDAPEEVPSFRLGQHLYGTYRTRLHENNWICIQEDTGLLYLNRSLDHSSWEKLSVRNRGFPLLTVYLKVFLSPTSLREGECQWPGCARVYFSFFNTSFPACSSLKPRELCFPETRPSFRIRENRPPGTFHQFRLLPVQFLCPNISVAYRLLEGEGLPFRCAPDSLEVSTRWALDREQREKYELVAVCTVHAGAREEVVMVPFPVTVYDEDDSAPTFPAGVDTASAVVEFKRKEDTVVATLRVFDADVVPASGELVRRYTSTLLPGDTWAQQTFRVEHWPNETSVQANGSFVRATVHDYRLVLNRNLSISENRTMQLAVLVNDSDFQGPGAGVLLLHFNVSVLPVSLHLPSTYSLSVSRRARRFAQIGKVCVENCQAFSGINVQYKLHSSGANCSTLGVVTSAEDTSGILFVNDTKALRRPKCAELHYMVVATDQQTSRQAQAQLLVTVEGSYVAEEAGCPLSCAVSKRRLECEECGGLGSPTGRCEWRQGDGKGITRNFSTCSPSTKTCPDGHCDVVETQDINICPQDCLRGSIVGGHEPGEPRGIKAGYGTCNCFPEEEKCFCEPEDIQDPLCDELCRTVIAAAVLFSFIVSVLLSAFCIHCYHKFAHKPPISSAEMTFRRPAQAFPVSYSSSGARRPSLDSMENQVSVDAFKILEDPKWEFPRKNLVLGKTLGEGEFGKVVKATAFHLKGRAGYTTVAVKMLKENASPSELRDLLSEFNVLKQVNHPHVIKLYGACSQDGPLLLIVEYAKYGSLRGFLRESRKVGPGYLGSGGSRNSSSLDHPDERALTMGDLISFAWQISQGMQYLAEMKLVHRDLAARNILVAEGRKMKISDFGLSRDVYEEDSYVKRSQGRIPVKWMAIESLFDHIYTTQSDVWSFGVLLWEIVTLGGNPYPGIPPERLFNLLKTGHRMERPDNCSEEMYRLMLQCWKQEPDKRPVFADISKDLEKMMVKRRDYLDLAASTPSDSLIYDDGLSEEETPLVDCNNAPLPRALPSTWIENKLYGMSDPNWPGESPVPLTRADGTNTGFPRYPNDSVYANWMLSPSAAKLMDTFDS
UniProt P35916, sequence (whole entry, looked up): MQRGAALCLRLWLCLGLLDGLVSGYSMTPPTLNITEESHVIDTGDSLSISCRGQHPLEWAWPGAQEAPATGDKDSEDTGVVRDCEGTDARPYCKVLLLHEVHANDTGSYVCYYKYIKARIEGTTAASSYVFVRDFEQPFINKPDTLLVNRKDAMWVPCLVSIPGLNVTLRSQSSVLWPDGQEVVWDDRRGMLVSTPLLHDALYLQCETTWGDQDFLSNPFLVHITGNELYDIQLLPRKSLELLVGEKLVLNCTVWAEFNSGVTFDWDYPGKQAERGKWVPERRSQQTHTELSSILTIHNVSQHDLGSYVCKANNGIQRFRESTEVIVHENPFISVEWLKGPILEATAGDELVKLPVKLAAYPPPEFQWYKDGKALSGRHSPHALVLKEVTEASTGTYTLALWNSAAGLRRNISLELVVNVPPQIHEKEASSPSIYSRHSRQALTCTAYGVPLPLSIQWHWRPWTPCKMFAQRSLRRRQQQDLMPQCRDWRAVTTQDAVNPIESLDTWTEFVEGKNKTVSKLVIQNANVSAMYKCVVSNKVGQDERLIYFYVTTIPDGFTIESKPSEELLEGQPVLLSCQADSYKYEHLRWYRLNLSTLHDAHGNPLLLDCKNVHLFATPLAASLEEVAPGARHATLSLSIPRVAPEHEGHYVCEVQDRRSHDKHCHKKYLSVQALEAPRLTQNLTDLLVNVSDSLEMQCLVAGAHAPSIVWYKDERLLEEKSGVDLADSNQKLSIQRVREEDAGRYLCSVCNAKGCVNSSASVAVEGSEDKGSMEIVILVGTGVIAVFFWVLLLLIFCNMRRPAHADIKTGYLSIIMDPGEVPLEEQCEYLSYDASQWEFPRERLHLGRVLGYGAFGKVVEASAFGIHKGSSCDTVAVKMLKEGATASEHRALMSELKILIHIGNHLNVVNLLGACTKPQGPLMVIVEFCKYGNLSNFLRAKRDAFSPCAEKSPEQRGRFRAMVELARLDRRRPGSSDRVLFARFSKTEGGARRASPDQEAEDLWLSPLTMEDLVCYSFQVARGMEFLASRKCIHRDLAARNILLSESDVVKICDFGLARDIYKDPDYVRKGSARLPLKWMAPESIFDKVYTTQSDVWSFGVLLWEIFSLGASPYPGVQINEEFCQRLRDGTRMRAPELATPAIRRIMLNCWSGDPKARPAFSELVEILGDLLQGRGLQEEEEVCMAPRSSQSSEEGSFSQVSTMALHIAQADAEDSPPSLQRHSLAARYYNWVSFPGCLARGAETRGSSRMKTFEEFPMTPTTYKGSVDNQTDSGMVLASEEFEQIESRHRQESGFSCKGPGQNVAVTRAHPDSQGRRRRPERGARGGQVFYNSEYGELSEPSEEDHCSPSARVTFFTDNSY

Series 1
Compound: COCCCCCCC1CC2C(CCC3(C)C(O)CCC23)c2ccc(O)cc21 (stereo not drawn)
Technique: microarray
Relative to: untreated
Endpoint: log2 fold change
A549; item: CCL8; 50 µM: 4.6
SK-OV-3; item: UBB; 10 µM: -0.662
SK-OV-3; item: CCL8; 50 µM: 5.4
PANC-1; item: ADAMTS14; 50 µM: -0.274
PANC-1; item: CCL8; 50 µM: 4.95
SK-OV-3; item: ACTA2; 10 µM: 0.0606
SK-OV-3; item: GADD45A; 50 µM: 2.65
PANC-1; item: CCL8; 10 µM: 5.03
A549; item: UBB; 50 µM: -0.203
SK-OV-3; item: GZMK; 10 µM: 4.57

Series 2
SMILES: Cc1ccc(O)c(C)c1-c1cnc2[nH]c(-c3cnc(N4CCC5(CC4)CC(N4CCN(c6cc7c(cc6F)c(N6CCC(=O)NC6=O)nn7C)CC4)CO5)nc3)cc2c1C#N (racemic)
Cell line: HCC1569
Technique: in-cell western
Item: CDK1 phospho-Thr14
Endpoint: pCDK1 (Thr14) level
333.33 nM: 84.3 RLU and 88.9 RLU
0.15 nM: 12.6 RLU and 7.93 RLU
1000 nM: 105 RLU and 102 RLU
1.37 nM: 7.21 RLU and 8.55 RLU
4.12 nM: 20.7 RLU and 31.4 RLU
12.35 nM: 49.8 RLU and 48.9 RLU

Series 3
SMILES: Cc1ncsc1-c1ccc(C(CO)NC(=O)C2CC(O)CN2C(=O)C(NC(=O)c2ccc(COc3c(-c4c(C)c(F)cc5[nH]ncc45)c(C4CC4)cc4c(N5CC6CC5CN6)nc(OC5CCOCC5)nc34)cc2)C(C)C)cc1 (stereo not drawn)
Time: 6 days
Endpoint: viability
ASPC1; cell growth or viability, ATP luminescence; 1 µM: 7.32% and 9.69% and 5.11% and 8.93% and 5.45% and 7.21%
ASPC1; cell growth or viability, ATP luminescence; 3 nM: 90.3% and 84.1% and 84.7% and 88.9% and 80.5% and 94.5%
ASPC1; cell growth or viability, ATP luminescence; 10 µM: 3.78% and 4.12% and 4.21% and 6.43% and 5.29% and 3.33%
ASPC1; cell growth or viability, ATP luminescence; 3 µM: 4.83% and 3.58% and 3.83% and 4.56% and 5.77% and 5.14%
ASPC1; cell growth or viability, ATP luminescence; 30 nM: 73.1% and 71.9% and 89.6% and 78.9% and 85.3% and 80.7%
AsPC-1; CellTiter-Glo; 300 nM: 36.8% and 26.9% and 24%

Series 4
SMILES: CCN1/C(=C/C=C2\CCCC(/C=C/C3=[N+](CC)c4ccccc4C3(C)C)=C2NCCCCCCCCN2CCC(Nc3nc4ccccc4n3Cc3ccc(F)cc3)CC2)C(C)(C)c2ccccc21
Cell line: U-87 MG
Concentration: concentration not given
Relative to: DMSO
Endpoint: log2 fold change
item: ANKRD36B mRNA: -1.35
item: CDKN2D mRNA: -1.05
item: PARG mRNA: 0.867
item: TM4SF18 mRNA: -6.11
item: TERF2IP mRNA: 0.913
item: HSD3B7 mRNA: -1.68
item: ATAD5 mRNA: -1.39
item: PRR11 mRNA: -1.61
item: RASSF5 mRNA: 1.15
item: FBXO5 mRNA: -1.67
item: S100A3 mRNA: -2.14

Series 5
Compound: COc1cc(C(=O)OCCCN2CCCN(CCCOC(=O)c3cc(OC)c(OC)c(OCc4ccc([N+](=O)[O-])cc4)c3)CC2)cc(OC)c1OC
Technique: electrocardiography
Endpoint: heart rate
mice; intraperitoneal, 30 mg/kg, 10 min: 550 beats/min and 635 beats/min and 560 beats/min
mice; intravenous, 30 mg/kg, 60 min: 426 beats/min and 486 beats/min and 489 beats/min and 540 beats/min and 550 beats/min and 543 beats/min
mouse; intraperitoneal, 30 mg/kg, before dosing: 568 beats/min and 640 beats/min and 607 beats/min
mouse; intraperitoneal, 10 mg/kg, before dosing: 578 beats/min and 658 beats/min and 598 beats/min
mouse; intravenous, 30 mg/kg, 30 min: 548 beats/min and 464 beats/min and 364 beats/min and 586 beats/min and 547 beats/min and 408 beats/min
mice; intraperitoneal, 10 mg/kg, 30 min: 628 beats/min and 561 beats/min and 580 beats/min

Series 6
Structure (SMILES): O=C(O)C1(O)Oc2cc(Br)ccc2N(Cc2ccccc2)C1=O (stereo not drawn)
Organism: Arabidopsis thaliana
Strain: Col-0
Endpoint: hypocotyl length
50 µg/mL, seed germination, repetition mean: 1.35 cm
12.5 µg/mL, seed germination, single repetition: 1.96 cm and 1.9 cm and 1.92 cm and 1.95 cm and 1.93 cm
25 µg/mL, seed germination, repetition mean: 1.71 cm
12.5 µg/mL, seed germination, repetition mean: 1.93 cm
6.25 µg/mL, seed germination, single repetition: 2.05 cm and 2.06 cm and 2.04 cm and 2 cm
3.125 µg/mL, seed germination, repetition mean: 2.11 cm
50 µg/mL, seed germination, single repetition: 1.35 cm and 1.36 cm and 1.39 cm and 1.37 cm and 1.34 cm
100 µg/mL, seed germination, repetition mean: 0.824 cm
3.125 µg/mL, seed germination, single repetition: 2.13 cm and 2.11 cm and 2.08 cm and 2.07 cm

Series 7
Compound: COc1cc(-c2nc3ccc(C(=O)NCCCN(C)C)cc3n2C2CCC2)cc(OC)c1OC
Endpoint: remaining binding
Tyrosine-protein kinase ABL1, non-phosphorylated (ABL1, Homo sapiens, UniProt P00519, F317L); binding, competition with immobilised ligand; 1 µM: 44%
PIK3C2B (Homo sapiens, UniProt O00750); binding, competition with immobilised ligand; 1 µM: 37%
KDR (Homo sapiens, UniProt P35968); binding, competition with immobilised ligand; 1 µM: 100%
EGFR (Homo sapiens, UniProt P00533); binding, competition with immobilised ligand; 1 µM: 82%
CDK9 (Homo sapiens, UniProt P50750); binding, competition with immobilised ligand; 1 µM: 94%
TEC (Homo sapiens, UniProt P42680); binding, competition with immobilised ligand; 1 µM: 96%
RIOK1 (Homo sapiens, UniProt Q9BRS2); binding, competition with immobilised ligand; 1 µM: 67%
PIK3CB (Homo sapiens, UniProt P42338); binding, competition with immobilised ligand; 1 µM: 90%
DAPK1 (Homo sapiens, UniProt P53355); binding, competition with immobilised ligand; 1 µM: 91%
FLT4 (Homo sapiens, UniProt P35916); binding, competition with immobilised ligand; 1 µM: 100%
PIK3CA (Homo sapiens, UniProt P42336); binding, competition with immobilised ligand; 1 µM: 95%
SRMS (Homo sapiens, UniProt Q9H3Y6); binding, competition with immobilised ligand; 1 µM: 87%
FLT3 ITD human; KINOMEscan; 1000 nM; relative to: DMSO control: 100%
RET (Homo sapiens, UniProt P07949, V804M); binding, competition with immobilised ligand; 1 µM: 57%
FLT3 (Homo sapiens, UniProt P36888, D835V); binding, competition with immobilised ligand; 1 µM: 100%
Macrophage colony-stimulating factor 1 receptor, autoinhibited (CSF1R, Homo sapiens, UniProt P07333); binding, competition with immobilised ligand; 1 µM: 98%

Series 8
Compound: C[C@@H]1CN(c2ccc(-c3cc(C(=O)NCCOCCOCCOCCOCCNC(=O)/C=C/c4[nH]cc(C(=O)N[C@@H](CC(N)=O)c5ccc(F)c(Cl)c5)c4-c4ccc(Cl)cc4F)ccc3F)cc2NC(=O)c2c[nH]c(=O)cc2C(F)(F)F)C[C@H](C)N1C
Read-out: thermal unfolding
Technique: differential scanning fluorimetry
Concentration: 5.5 µM
Reading: higher = more unfolded
Endpoint: SYPRO Orange fluorescence
WDR5: WD repeat-containing protein 5 (WDR5, Homo sapiens, UniProt P61964)
DCAF1: DDB1- and CUL4-associated factor 1 (DCAF1, Homo sapiens, UniProt Q9Y4B6)
UniProt Q9Y4B6, sequence (whole entry, looked up): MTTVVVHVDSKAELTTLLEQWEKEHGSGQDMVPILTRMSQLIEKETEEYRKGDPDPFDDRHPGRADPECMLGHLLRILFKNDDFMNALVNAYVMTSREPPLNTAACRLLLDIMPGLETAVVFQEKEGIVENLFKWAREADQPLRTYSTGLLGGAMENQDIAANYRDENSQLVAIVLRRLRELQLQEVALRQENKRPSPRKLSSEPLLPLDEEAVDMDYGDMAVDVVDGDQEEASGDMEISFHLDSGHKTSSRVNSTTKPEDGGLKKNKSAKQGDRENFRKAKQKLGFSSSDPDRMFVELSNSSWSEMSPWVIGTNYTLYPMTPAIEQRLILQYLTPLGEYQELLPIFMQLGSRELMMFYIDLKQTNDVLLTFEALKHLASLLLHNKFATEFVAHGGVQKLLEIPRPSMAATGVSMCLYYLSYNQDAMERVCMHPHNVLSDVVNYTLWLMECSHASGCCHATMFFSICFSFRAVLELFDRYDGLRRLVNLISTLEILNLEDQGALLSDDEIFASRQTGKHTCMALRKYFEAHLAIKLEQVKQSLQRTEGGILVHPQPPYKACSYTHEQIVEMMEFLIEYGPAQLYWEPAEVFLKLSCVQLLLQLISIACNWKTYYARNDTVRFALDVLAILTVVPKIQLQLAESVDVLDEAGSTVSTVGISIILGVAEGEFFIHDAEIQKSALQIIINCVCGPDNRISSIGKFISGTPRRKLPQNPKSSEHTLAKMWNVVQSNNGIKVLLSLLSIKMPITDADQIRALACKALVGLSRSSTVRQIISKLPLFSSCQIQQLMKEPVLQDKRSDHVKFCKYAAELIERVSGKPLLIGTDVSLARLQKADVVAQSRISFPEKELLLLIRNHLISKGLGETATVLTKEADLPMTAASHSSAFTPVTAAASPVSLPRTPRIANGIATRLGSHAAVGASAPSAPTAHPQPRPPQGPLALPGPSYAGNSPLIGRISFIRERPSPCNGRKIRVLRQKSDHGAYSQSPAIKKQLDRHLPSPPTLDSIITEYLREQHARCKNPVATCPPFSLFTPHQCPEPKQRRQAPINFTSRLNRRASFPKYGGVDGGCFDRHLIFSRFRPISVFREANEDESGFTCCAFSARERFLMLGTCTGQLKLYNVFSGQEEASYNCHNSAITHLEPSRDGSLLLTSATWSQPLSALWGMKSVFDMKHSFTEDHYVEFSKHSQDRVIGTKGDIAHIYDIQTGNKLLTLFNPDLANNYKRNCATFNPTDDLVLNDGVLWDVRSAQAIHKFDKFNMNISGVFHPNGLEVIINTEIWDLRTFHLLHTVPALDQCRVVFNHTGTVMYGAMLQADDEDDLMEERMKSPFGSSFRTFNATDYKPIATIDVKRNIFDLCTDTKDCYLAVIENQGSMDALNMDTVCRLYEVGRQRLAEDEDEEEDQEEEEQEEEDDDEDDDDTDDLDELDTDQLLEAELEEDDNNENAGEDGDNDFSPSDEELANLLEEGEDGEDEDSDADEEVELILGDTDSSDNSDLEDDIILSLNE
WDR5; 47.6 °C: 15800 a.u.
WDR5; 74.61 °C: 24900 a.u.
DCAF1; 72.21 °C: 53100 a.u.
DCAF1; 31.6 °C: 9700 a.u.
WDR5; 26.4 °C: 13000 a.u.
WDR5; 92.81 °C: 47700 a.u.
WDR5; 67.01 °C: 14000 a.u.
WDR5; 42 °C: 14800 a.u.

Some of these lines once more (series 4):
item: ATAD5 mRNA: -1.39
item: HSD3B7 mRNA: -1.68
item: FBXO5 mRNA: -1.67
item: TM4SF18 mRNA: -6.11
item: PARG mRNA: 0.867
item: CDKN2D mRNA: -1.05
